Measured values collected from several papers.
Compare with care: the assays were run in different laboratories. ± marks the error that the study gave.
Chrnd/Chrna1/Chrne G173K/S470W: Chrnd/Chrna1/Chrne (Mus musculus, UniProt P02716+P04756+P20782, G173K/S470W)
VPS26A/VPS35/VPS29: VPS26A/VPS35/VPS29 (Homo sapiens, UniProt O75436+Q96QK1+Q9UBQ0)
UDP-3-O-acyl-N-acetylglucosamine deacetylase C40S: UDP-3-O-acyl-N-acetylglucosamine deacetylase (Pseudomonas aeruginosa, UniProt P47205, C40S)
USP33 ZnF-UBD domain: Ubiquitin carboxyl-terminal hydrolase 33, ZnF-UBD domain (USP33, Homo sapiens, UniProt Q8TEY7)

SMILES	target	assay	system	conditions	quantity	value
C[N+](C)(C)C	Chrnd/Chrna1/Chrne G173K/S470W	resting state binding, agonist, single-channel kinetics	–	–	Kd	17 µM
CC(C)(C)C(=O)C(Oc1ccc(Cl)cc1)n1ccnc1 (stereo not shown)	Cytochrome P450 2A6 (CYP2A6, Homo sapiens, UniProt P11509)	binding	–	20 min, pH 7.4, purified protein, 2% DMSO	Kd	33.8 µM
CC[C@H](C)[C@H](NC(=O)[C@H](CC(N)=O)NC(=O)[C@@H](N)CO)C(=O)N[C@@H](Cc1ccccc1)C(=O)N[C@@H](CC(=O)O)C(=O)N[C@@H](CC(=O)O)C(=O)N1CCC[C@H]1C(=O)N[C@@H](CC(C)C)C(=O)N[C@@H](CC(N)=O)C(=O)N[C@@H](C)C(=O)N[C@@H](Cc1ccccc1)C(=O)NCC(=O)NCC(=O)N[C@@H](CCC(N)=O)C(=O)O	VPS26A/VPS35/VPS29	binding, ITC	–	pH 7.5, with: FAM21 peptides	Kd	26.8 ± 4.3 µM
Nc1ncnc2c1ncn2[C@@H]1O[C@H](COP(=O)(O)OP(=O)(O)NP(=O)(O)O)[C@@H](O)[C@H]1O	Cell cycle histidine kinase CckA, cytoplasmic region (Caulobacter vibrioides, UniProt Q9X688)	isothermal titration calorimetry	Caulobacter crescentus	12 °C, with: c-di-GMP 100 µM	Kd	57 µM
O=C(NO)[C@H]1COC(c2ccc(OC(F)(F)F)c(Cl)c2)=N1	UDP-3-O-acyl-N-acetylglucosamine deacetylase C40S	binding, thermal shift	–	pH 7.0, equimolar ZnCl2	Kd	3.8 µM
CSCC[C@H](NC(=O)CNC(=O)[C@H](Cc1ccccc1)NC(=O)[C@H](CC(=O)O)NC(=O)CNC(=O)c1ccc2c(c1)C(=O)OC21c2ccc(N(C)C)cc2Oc2cc(N(C)C)ccc21)C(=O)N[C@@H](CO)C(=O)N[C@@H](CCCNC(=N)N)C(=O)N[C@@H](CC(=O)O)C(=O)N[C@H](C(=O)N[C@@H](Cc1ccc(OP(=O)(O)O)cc1)C(=O)N[C@@H](CO)C(=O)N[C@H](C(=O)N[C@@H](CC(=O)O)C(=O)N[C@@H](Cc1ccc(O)cc1)C(=O)N[C@@H](Cc1ccc(O)cc1)C(=O)N[C@@H](CCCNC(=N)N)C(=O)N[C@H](C(=O)N[C@@H](CC(=O)O)C(=O)O)C(C)C)[C@@H](C)O)C(C)C	Transcription elongation factor SPT6, SH2 domain (SUPT6H, Homo sapiens, UniProt Q7KZ85)	binding	–	–	Kd	1.11 µM
CC[C@H](C)[C@@H]1NC(=O)[C@H](CCCNC(=N)N)NC(=O)[C@@H]2CCCN2C(=O)[C@H](Cc2ccccc2)NC(=O)[C@H]([C@@H](C)O)NC(=O)CNC(=O)[C@H](CC(C)C)NC(=O)[C@@H]2CCCN2C(=O)[C@H]([C@@H](C)O)NC(=O)[C@H](Cc2c[nH]c3ccccc23)NC(=O)[C@H](Cc2ccc(O)cc2)NC(=O)[C@H]([C@@H](C)CC)NC(=O)[C@H]([C@@H](C)O)NC(=O)[C@H]([C@@H](C)O)NC(=O)[C@@H](Cc2ccc(O)cc2)NC(=O)CSC[C@@H](C(N)=O)NC(=O)[C@H](CCCNC(=N)N)NC1=O	VPS26A/VPS35/VPS29	binding	–	–	Kd	0.053 ± 0.006 µM
CC(C)C[C@H](NC(=O)[C@@H](NC(=O)[C@H](CO)NC(=O)[C@H](CO)NC(=O)[C@@H](NC(=O)[C@H](CC(=O)O)NC(=O)[C@H](CC(C)C)NC(=O)[C@@H]1CCCN1C(=O)[C@H](CO)NC(=O)c1ccc2c(c1)C(=O)OC21c2ccc(N(C)C)cc2Oc2cc(N(C)C)ccc21)[C@@H](C)O)C(C)C)C(=O)N[C@@H](Cc1ccc(OP(=O)(O)O)cc1)C(=O)N[C@H](C(=O)N[C@@H](C)C(=O)N[C@H](C(=O)N[C@@H](CCC(N)=O)C(=O)N1CCC[C@H]1C(=O)N[C@@H](CC(N)=O)C(=O)N[C@@H](CCC(=O)O)C(=O)N[C@@H](CC(=O)O)C(=O)O)C(C)C)[C@@H](C)O	Proto-oncogene tyrosine-protein kinase Src, SH2 domain (SRC, Homo sapiens, UniProt P12931)	binding	–	–	Kd	1.88 µM
COc1cc(Nc2ncc(F)c(Nc3ccc4c(n3)NC(=O)C(C)(C)O4)n2)cc(OC)c1OC	DPP4 (Homo sapiens, UniProt P27487)	enzyme activity, inhibitor	–	–	IC50	> 10 µM
CC(=O)N[C@@H](CC(N)=O)C(=O)N[C@@H](CC(C)C)C(=O)NCC(=O)N[C@@H](CCCCN)C(=O)N[C@@H](Cc1c[nH]cn1)C(=O)N[C@@H](CCC(=O)O)C(=O)N[C@@H](CCCCN)C(=O)N[C@@H](Cc1ccccc1)C(=O)N[C@@H](CO)C(=O)N[C@@H](CCC(=O)O)C(=O)N[C@H](C(=O)N[C@@H](CC(C)C)C(=O)N[C@@H](CCCCN)C(=O)N[C@@H](CCCNC(=N)N)C(=O)N[C@@H](CC(C)C)C(=O)N[C@@H](CCCNC(=N)N)C(=O)N[C@@H](CC(C)C)C(=O)N[C@@H](CCC(N)=O)C(N)=O)C(C)C	Calmodulin-1, C-lobe (CALM1, Homo sapiens, UniProt P0DP23)	ITC	–	C-lobe, with: 1 mM CaCl2	Kd	0.13 µM
O=C(O)CNC(=O)c1cccnc1	USP33 ZnF-UBD domain	–	–	–	Kd	514 µM
CC1(CNC(=O)c2ccc(-c3ccccc3)cc2)NC(=O)NC1=O (stereo not shown)	UDP-3-O-acyl-N-acetylglucosamine deacetylase C40S	binding	–	–	Kd	> 100 µM
c1cncc([C@@H]2CCCCN2)c1	Chrnd/Chrna1/Chrne G173K/S470W	single-channel kinetics	–	K chain side site	Kd	2.23 µM
O=[N+]([O-])c1ccc2c(N=Nc3ccc4ccccc4c3O)c(O)cc(S(=O)(=O)O)c2c1	Diphosphomevalonate decarboxylase (Staphylococcus epidermidis, UniProt Q9FD73, W19F)	–	–	–	Kd	0.023 ± 0.013 µM
CC[C@H](C)[C@H](NC(=O)[C@@H](NC(=O)[C@@H](NC(=O)[C@H](Cc1ccccc1)NC(=O)[C@H](C)NC(=O)[C@H](CCCNC(=N)N)NC(=O)CNC(=O)[C@@H]1CCCN1C(=O)CN)C(C)C)[C@@H](C)O)C(=O)O	H-2 class I histocompatibility antigen, D-D alpha chain, 21 (H2-D1, Mus musculus, UniProt P01900)	–	–	–	Kd	~11000 µM
CC[C@@H](C)[C@@H](NC(=O)[C@@H](Cc1ccc(O)cc1)NC(=O)[C@H]1CCCN1C(=O)[C@@H](CCCNC(=N)N)NC(=O)[C@H](N)Cc1c[nH]cn1)C(=O)N[C@H](C)C(=O)N[C@H](Cc1c[nH]cn1)C(=O)N[C@H](CCCNC(=N)N)C(=O)N[C@H](CCCCNC(=O)c1cccc(S(=O)(=O)F)c1)C(=O)N[C@H](Cc1ccc(O)cc1)C(=O)N[C@H](CO)C(=O)N[C@H](Cc1ccccc1)C(N)=O	CD274 (Homo sapiens, UniProt Q9NZQ7)	microscale thermophoresis	–	2 h, His-tagged protein	Kd	1.3 ± 1.9 µM
CC[C@H](C)[C@H](NC(=O)[C@H](CC(=O)O)NC(=O)[C@H](C)NC(=O)[C@H](Cc1ccc(O)cc1)NC(=O)[C@H](CCCCN)NC(=O)c1ccc2c(c1)C(=O)OC21c2ccc(N(C)C)cc2Oc2cc(N(C)C)ccc21)C(=O)N[C@@H](CCC(=O)O)C(=O)N[C@@H](CO)C(=O)N[C@@H](CO)C(=O)N[C@@H](CC(N)=O)C(=O)N[C@@H](Cc1ccc(OP(=O)(O)O)cc1)C(=O)N[C@@H](CCSC)C(=O)N[C@@H](C)C(=O)N1CCC[C@H]1C(=O)N[C@@H](Cc1ccc(O)cc1)C(=O)N[C@@H](CC(=O)O)C(=O)N[C@@H](CC(N)=O)C(=O)N[C@@H](Cc1ccc(O)cc1)C(=O)N[C@@H](CC(=O)O)C(=O)O	SH2 domain-containing protein 2A, SH2 domain (SH2D2A, Homo sapiens, UniProt Q9NP31)	–	–	–	Kd	0.388 µM
N[C@@H](Cc1ccc(O)c(I)c1)C(=O)O	Iodotyrosine deiodinase (Haliscomenobacter hydrossis, UniProt F4KU78, R38E)	binding	–	–	Kd	940 ± 140 µM
C[C@@H](O)[C@H](NC(=O)c1ccc(C#CC#Cc2ccccc2)cc1)C(=O)NO	UDP-3-O-acyl-N-acetylglucosamine deacetylase C40S	binding, thermal shift	–	–	Kd	0.00835 µM
CC[C@H](C)[C@H](NC(=O)[C@H](CCC(N)=O)NC(=O)[C@H](CCCNC(=N)N)NC(=O)[C@H](CC(=O)O)NC(=O)[C@H](CCC(=O)O)NC(=O)[C@H](CC(=O)O)NC(=O)[C@H](CO)NC(=O)[C@H](Cc1ccc(O)cc1)NC(=O)[C@H](CCC(=O)O)NC(=O)[C@H](CCCNC(=N)N)NC(=O)[C@H](CC(=O)O)NC(=O)[C@@H]1CCCN1C(=O)[C@H](Cc1ccc(O)cc1)NC(=O)[C@H](CO)NC(=O)[C@@H]1CCCN1C(=O)[C@H](CO)NC(=O)[C@@H](N)CCC(N)=O)C(=O)N[C@@H](CCCCN)C(=O)N[C@@H](CCC(N)=O)C(=O)N[C@@H](CCSC)C(=O)N[C@@H](CC(C)C)C(=O)N[C@@H](Cc1c[nH]cn1)C(=O)N[C@@H](CCC(N)=O)C(=O)N[C@@H](CCC(=O)O)C(=O)N[C@@H](CS)C(=O)N1CCC[C@H]1C(=O)N[C@@H](CCCNC(=N)N)C(=O)N[C@@H](CC(C)C)C(N)=O	human IgE	binding, SPR imaging	PBS-T	pH 7.2	Kd	0.0016 ± 0.0006 µM
C[C@@H](O)[C@H](NC(=O)c1ccc(-c2ccccc2)cc1)C(=O)NCC1(C)NC(=O)NC1=O (stereo partly shown)	UDP-3-O-acyl-N-acetylglucosamine deacetylase C40S	binding	–	–	Kd	> 100 µM
CCCCCCCC(=O)OC[C@H](COP(=O)(O)O[C@@H]1[C@H](O)[C@H](OP(=O)(O)O)[C@@H](O)[C@H](O)[C@H]1O)OC(=O)CCCCCCC	PP2C family protein phosphatase (Vibrio splendidus, UniProt A0ABV4LX41, I196A)	–	–	–	Kd	0.95 ± 0.008 µM
CN1CCC[C@H]1c1cccnc1	Chrnd/Chrna1/Chrne (Mus musculus, UniProt P02716+P04756+P20782, G173E)	–	–	–	Kd	26 µM
CN(CC(=O)O)C(=N)NP(=O)(O)O	CKMT1A (Homo sapiens, UniProt P12532)	microscale thermophoresis	–	pH 7.0, WT mutant, no substrate	Kd	10 ± 8 µM
Oc1ccc(Sc2ccc(O)cc2)cc1	Heat shock protein 90 homolog (Candida albicans, UniProt P46598)	binding, fluorescence polarization competition	–	3 h, room temperature, with: geldanamycin-FITC 5 nM	Kd	45.6 ± 17 µM
O=C(O)CCCN1CC=C(c2ccccc2)CC1	USP33 ZnF-UBD domain	–	–	–	Kd	> 1000 µM
N[C@@H](Cc1ccc(O)c(OC(F)(F)F)c1)C(=O)O	Iodotyrosine deiodinase (Haliscomenobacter hydrossis, UniProt F4KU78, Q108C)	binding	–	–	Kd	30 ± 1 µM
CC(=O)N[C@@H](Cc1ccccc1)C(=O)N[C@@H](CC(=O)O)C(=O)N1CCC[C@H]1C(=O)N1CCC[C@H]1C(=O)N[C@@H](CC(C)C)C(=O)N[C@@H](Cc1c[nH]cn1)C(=O)N[C@@H](CO)C(=O)N[C@H](C(=O)N[C@@H](C)C(N)=O)[C@@H](C)OP(=O)(O)O	Serine/threonine-protein kinase PLK1, polo-box domain (PLK1, Homo sapiens, UniProt P53350, Y417A/Y421A)	isothermal titration calorimetry	–	Y417A/Y421A double mutant	Kd	0.72 µM
